Measurements gathered from unrelated publications.
Compare with care: the assays were run in different laboratories. ± gives the spread as reported.

| Substance | cell line | assay | test system | setting | IC50 |
| --- | --- | --- | --- | --- | --- |
| COc1cccc(-c2cc3ccccc3[nH]2)c1 | HEK293 NF-κB luciferase reporter | reporter gene, measured: NF-κB | – | 6 h, with: TNFα | 5.8 ± 1.1 µM |
| NC1(c2ccc(-c3nc4ccn5c(=O)[nH]nc5c4cc3-c3ccccc3)cc2)CCC1 | MDA-MB-231 LINK-A PIP3-BM -/- | AKT phosphorylation, AlphaScreen SureFire, measured: AKT pSer473 over total AKT | – | with: EGF 200 nM | 0.0657 µM |
| CNC(=O)c1c(-c2cccc(N3CCN(c4ccc(NS(=O)(=O)c5ccc(N[C@H](CCN(C)C)CSc6ccccc6)c([N+](=O)[O-])c5)cc4)CC3)c2)c(-c2ccc(Cl)cc2)n(C)c1C | NCI-H146 | cell growth or viability | – | 96 h | 0.036 µM |
| O=c1cc(-c2ccc(O)cc2)oc2cc(O)cc(O)c12 | CCRF-CEM | cell growth or viability, ATP luminescence | – | 24 h | 195 µM |
| O=c1cc(-c2ccc([N+](=O)[O-])cc2)[nH]c2c(-c3ccc(Cl)cc3)c(Cc3ccccc3)nn12 | primary human adipocytes | fatty acid uptake | – | with: C1-BODIPY-C12 fatty acid | 58 µM |
| COc1ccc(C[C@H]2COC(=O)[C@@H]2Cc2ccc(OCCCCC(=O)NO)c(OC)c2)cc1OC | CCRF-CEM | cell growth or viability, CCK-8 | – | 48 h | > 5 µM |
| O=c1[nH]nc(O)c2c(-c3cccc(Br)c3)c3n(c12)CCn1cccc1-3 | PANC-1 | cell growth or viability, MTT | – | 48 h | 58.2 µM |
| COc1cc(C(=O)c2sc3cc(C)ccc3c2NC(=O)CBr)cc(OC)c1OC | L1210 | cell growth or viability | – | 24 h | 0.24 µM |
| Cn1nnc2c(C(N)=O)ncn2c1=O | GM12878 | cell proliferation, MTS | – | 24 h, with: HNL 10 µM | < 1000 µM |
| COc1cc(C(=O)c2sc3c(C)cccc3c2N)cc(OC)c1OC | L1210 | cell growth or viability | – | – | 0.062 µM |
| CCN(CC)Cc1cc2c(-c3ccccc3)cc(=O)oc2c(C)c1O | NIH3T3 | hyaluronan secretion | – | 72 h | 100 ± 65.9 µM |
| Cc1ccc(C)n1-c1cccc(C(=O)O)c1 | LAPC4 | AR transcriptional activity, antagonist, PSA promoter luciferase | – | 24 h | 0.834 µM |
| COc1ccc(C[C]2([Ti+2][C]3(Cc4ccc(OC)cc4)C=CC=C3)C=CC=C2)cc1.[Cl-].[Cl-] | IMR-90 | cell growth or viability, resazurin | – | 72 h | > 100 µM |
| navitoclax | MOLT-4 | cell viability, MTS | – | 48 h | 0.227 µM |
| Cc1cc(C)cc(/C=C(\C(=O)c2cc(C)[nH]c(=O)c2C(=O)N2CCCCC2)c2cc(C)cc(C)c2)c1 | human primary dermal fibroblasts | cell proliferation, MTT | – | 72 h | > 10 µM |
| O=C(N/N=C/c1c(O)ccc2ccccc12)c1ccc(-n2ccccc2=O)cc1 | PANC-1 | cell growth or viability | – | 72 h | 2.92 µM |
| COc1ccccc1-c1nccc(COc2ccccc2C[C@@H](Nc2nccc3sc(-c4ccc(F)cc4)c(-c4ccc(OCCN5CCN(C)CC5)c(Cl)c4C)c23)C(=O)O)n1 | NCI-H929 | cell viability, MTT | – | 48 h, 10% CFS | 0.036 µM |
| Cc1c(N)nc([C@H](CC(N)=O)NC[C@H](N)C(N)=O)nc1C(=O)N[C@H](C(=O)N[C@H](C)[C@@H](O)[C@H](C)C(=O)N[C@H](C(=O)NCCC1=N[C@@H](c2nc(C(=O)NCCCCN=C(N)N)cs2)CS1)[C@@H](C)O)[C@@H](O[C@@H]1O[C@@H](CO)[C@@H](O)[C@H](O)[C@@H]1O[C@H]1O[C@H](CO)[C@@H](O)[C@H](OC(N)=O)[C@@H]1O)c1cnc[nH]1 | HDFn | cell viability, PrestoBlue | – | 4 days | 2.71 µg/mL |
| C=CC(=O)N1CCC[C@@H](n2c(=O)n(-c3ccc(Oc4ccccc4)cc3)c3c(N)nccc32)C1 | B cells | CD69 surface expression, inhibitor, measured: CD69 | stimulated human whole blood | – | 0.01 µM |
| COc1cccc(-c2c3n(c4c(=O)[nH]nc(O)c24)CCn2cccc2-3)c1 | PANC-1 | cell growth or viability, MTT | – | 48 h | 69.1 µM |
| C=CC(C)(C)c1cc(C(=O)c2c(-c3cc(-c4cc5cc(C(C)(C)C=C)c(O)cc5oc4=O)c(O)cc3O)oc3cc(O)ccc23)c(O)cc1O | Hepa1c1c7 | cell growth | – | – | 9.2 µM |
| Clc1ccc(C(Cn2ccnc2)OCc2csc3c(Cl)cccc23)c(Cl)c1 (stereo not shown) | LAPC4 | AR transcriptional activity, antagonist, PSA promoter luciferase | – | 24 h | 0.554 µM |

A few entries again:
| Substance | cell line | assay | test system | setting | IC50 |
| --- | --- | --- | --- | --- | --- |
| C=CC(C)(C)c1cc(C(=O)c2c(-c3cc(-c4cc5cc(C(C)(C)C=C)c(O)cc5oc4=O)c(O)cc3O)oc3cc(O)ccc23)c(O)cc1O | Hepa1c1c7 | cell growth | – | – | 9.2 µM |
| COc1cccc(-c2cc3ccccc3[nH]2)c1 | HEK293 NF-κB luciferase reporter | reporter gene, measured: NF-κB | – | 6 h, with: TNFα | 5.8 ± 1.1 µM |
| CCN(CC)Cc1cc2c(-c3ccccc3)cc(=O)oc2c(C)c1O | NIH3T3 | hyaluronan secretion | – | 72 h | 100 ± 65.9 µM |
